{"data": "Assay results from different studies", "observed": "viral replication", "note": "Compare with care: the assays were run in different laboratories. “And” joins repeats or separate records; there may be more than shown. Numbers after ± are the reported error."}
{"Structure (SMILES)": "CONC(=O)[C@H]1[C@@H](O)[C@@]2(O)c3c(OC)cc(OC)cc3O[C@@]2(c2ccc(OC)cc2)[C@@H]1c1ccccc1", "organism": "human coronavirus 229E", "test system": "MRC5", "EC50": "0.00288 µM"}
{"Structure (SMILES)": "Cc1ccc(N2CC3CC(C2)N3C)cc1C(=O)NC1(c2ccc3c4c(cccc24)C(=O)N3C)CC1", "organism": "human coronavirus 229E", "test system": "Huh-7", "EC50": "2.66 µM"}
{"Structure (SMILES)": "CN1CC23C4C=CC5C4C4C2C=CC4C53C1", "organism": "Influenza A virus", "test system": "MDCK, A/FM/1/47 (H1N1)", "EC50": "10 ± 3 µM"}
{"Structure (SMILES)": "COC(=O)C1NC(=O)C2NC(=O)C(NC(=O)C3NC(=O)C4NC(=O)C(NC(=O)C(Nc5c(OC)c(=O)c5=O)c5ccc(O)c(c5)Oc5cc4cc(O)c5C)C(O)c4ccc(cc4)Oc4cc3cc(c4O)Oc3ccc(cc3)C2O)c2ccc(O)c(c2)-c2c(O)cc(O)cc21 (stereo not drawn)", "organism": "Influenza A virus H3N2", "test system": "X-31", "EC50": "3.2 ± 1.2 µM"}
{"Structure (SMILES)": "c1csc(CNC23C4CCC5C4C4C(CCC42)C53)c1", "organism": "Influenza A virus", "test system": "MDCK, A/PR/8/34 (H1N1)", "EC50": "8 µM"}
{"Structure (SMILES)": "CN[C@H](CC(C)C)C(=O)N[C@H]1C(=O)N[C@@H](CC(N)=O)C(=O)N[C@H]2C(=O)N[C@H]3C(=O)N[C@H](C(=O)N[C@H](C(=O)O)c4cc(O)cc(O)c4-c4cc3ccc4O)[C@H](O)c3ccc(c(Cl)c3)Oc3cc2cc(c3O)Oc2ccc(cc2Cl)[C@H]1O", "organism": "Influenza A virus H3N2", "test system": "MDCK, A/HK/7/87", "setting": "72 h", "EC50": "≥ 31 µM"}
{"Structure (SMILES)": "O=C(CCN(CCC(=O)N[C@@H](Cc1c[nH]c2ccccc12)C(=O)O)C(=O)CCN(CCC(=O)N(CCC(=O)N[C@@H](Cc1c[nH]c2ccccc12)C(=O)O)CCC(=O)N[C@@H](Cc1c[nH]c2ccccc12)C(=O)O)C(=O)CCC(CCC(=O)N(CCC(=O)N(CCC(=O)N[C@@H](Cc1c[nH]c2ccccc12)C(=O)O)CCC(=O)N[C@@H](Cc1c[nH]c2ccccc12)C(=O)O)CCC(=O)N(CCC(=O)N[C@@H](Cc1c[nH]c2ccccc12)C(=O)O)CCC(=O)N[C@@H](Cc1c[nH]c2ccccc12)C(=O)O)(CCC(=O)N(CCC(=O)N(CCC(=O)N[C@@H](Cc1c[nH]c2ccccc12)C(=O)O)CCC(=O)N[C@@H](Cc1c[nH]c2ccccc12)C(=O)O)CCC(=O)N(CCC(=O)N[C@@H](Cc1c[nH]c2ccccc12)C(=O)O)CCC(=O)N[C@@H](Cc1c[nH]c2ccccc12)C(=O)O)[N+](=O)[O-])N[C@@H](Cc1c[nH]c2ccccc12)C(=O)O", "organism": "human coronavirus 229E", "EC50": "8.9 µM"}
{"Structure (SMILES)": "NCC12C3CCC4C3C3C(CCC31)C42", "organism": "Influenza A virus", "test system": "MDCK, A/PR/8/34 (H1N1)", "EC50": "9.1 µM and < 10 µM"}
{"Structure (SMILES)": "CSCC[C@@H](C=O)NC(=O)[C@H](CC(C)C)NC(=O)[C@H](CC(C)C)NC(C)=O", "organism": "human coronavirus 229E", "EC50": "0.08 ± 0.01 µM"}
{"Structure (SMILES)": "O=C1/C(=N\\NC(=S)NN=Cc2cccs2)c2ccccc2N1Cc1ccccc1", "organism": "Influenza A virus H3N2", "test": "MTS", "test system": "MDCK", "EC50": "> 4 µM"}
{"Structure (SMILES)": "CCC[C@H](NC(=O)[C@H](CC(C)C)NC(=O)OCc1ccccc1)C(=O)C(=O)NCc1ccccn1", "organism": "human coronavirus 229E", "EC50": "0.1 ± 0.01 µM"}
{"Structure (SMILES)": "CN1CC23C4CCC5C4C4C2CCC4C53C1", "organism": "Influenza A virus", "test": "inhibitor", "test system": "H3N2", "EC50": "> 100 µM"}
